Measurements pooled from the literature.
Lines come from different studies, so protocols differ. ± marks the error that the study gave.
Cell line: MCF7

CCCc1cc(O)nc(SCCOC(=O)[C@]2(C)CCC[C@]3(C)c4ccc(C(C)C)cc4CCC23)n1 (some centres unmarked) — apoptotic cells (annexin V-FITC/PI flow cytometry; 15 µM, 48 h): 43.3%
CC[C@H]([C@H](CC)c1ccc(O)cc1)[C@@H](C)c1ccc(O)cc1 — EC50 (cell growth or viability, ATP luminescence; 5 days): 9.6e-06 µM
N=C(N)NCCC[C@H](NC(=O)[C@H](Cc1c[nH]c2ccccc12)NC(=O)[C@H](CCC(N)=O)NC(=O)[C@@H](N)Cc1c[nH]c2ccccc12)C(=O)N[C@@H](Cc1c[nH]c2ccccc12)C(=O)N[C@@H](CCC(N)=O)C(=O)N[C@@H](Cc1c[nH]c2ccccc12)C(N)=O — selectivity ratio (baseline: fibroblast IC50 over MCF7 IC50): 0.5
Cc1cc(/C=C/c2ccc(O)c(O)c2)[nH]n1 — GSH/GSSG ratio increase (25 µM, 48 h; baseline: untreated): ~7 fold
COc1cc2c(=O)c(-c3ccc4c(c3)OCO4)coc2c2c1OC(C)(C)C=C2 — apoptotic cells (annexin V/PI flow cytometry; 2.5 µM, 48 h): 15.9%
CN1CCC2(CC1)C/C(=N\NC(=O)Nc1ccccc1)c1ccccc1O2 — apoptotic cells (annexin V-FITC/PI; concentration not given, 24 h, Early apoptosis): 21.7%
NS(=O)(=O)c1ccc(/N=N/c2ccc(O)c(/C=N/c3cc(Cl)ccc3O)c2)cc1 — selectivity index (MTT; 72 h; baseline: MCF10A IC50 over MCF7 IC50): 1.75
O=C1c2ccccc2C(=O)c2c1ccc1c2C(C(=O)Nc2ccc(Br)cc2)C(=O)C1c1ccccc1 (centres unmarked) — TGI (cell growth or viability): 45.3 µM
CCC[C@@H]1O[C@@H](Oc2c(-c3ccc(O)cc3)oc3cc(O)cc(O)c3c2=O)[C@H](OC(C)=O)[C@H](OC(C)=O)[C@H]1NC(C)=O — eEF2 phosphorylation (inhibitor, immunoblot, measured: phospho-eEF2; 25 and 50 µM, with: PMA; baseline: PMA alone): no effect
CCC(=C(c1ccc(Cl)cc1)c1ccc(OCCN2CCCCCC2)cc1)c1ccccc1 — inhibition (cell growth or viability; 10 µM): 23.7%
NS(=O)(=O)c1ccc(/N=N/c2ccc(O)c(/C=N/CCc3c[nH]c4ccccc34)c2)cc1 — selectivity index (MTT; 72 h; baseline: MCF10A IC50 over MCF7 IC50): 2.78
CC(=O)OC[C@H]1O[C@@H](Sc2sc(C(=O)c3ccc(C)cc3)c(N)c2-c2nc3ccccc3s2)[C@H](OC(C)=O)[C@@H](OC(C)=O)[C@@H]1OC(C)=O — growth (SRB; 10 µM, 48 h; baseline: untreated): 73.6%
N=C(N)NCCC[C@H](NC(=O)[C@H](Cc1c[nH]c2ccccc12)NC(=O)[C@H](CCC(N)=O)NC(=O)[C@H](Cc1c[nH]c2ccccc12)NC(=O)[C@H](CCCNC(=N)N)NC(=O)[C@H](Cc1c[nH]c2ccccc12)NC(=O)[C@H](CCC(N)=O)NC(=O)[C@H](Cc1c[nH]c2ccccc12)NC(=O)[C@@H](N)CCCNC(=N)N)C(N)=O — selectivity ratio (baseline: MCF-12 IC50 over MCF7 IC50): > 1.7
C[n+]1c(/C=C/c2ccc(N(c3ccccc3)c3ccccc3)cc2)cc(/C=C2\Sc3ccccc3N2CCCN2CCCC2)c2ccccc21 — hTERT protein level (Western blot; concentration not given, 36 h): decreased
Nc1ccccc1NC(=O)c1cnccn1 — cells in G0/G1-phase (PI flow cytometry; IC50, 48 h): 58.4%
O=C(O)C=Cc1ccc(C(=C2C3CCCC2CCC3)c2ccc(O)cc2)cc1 — pS2 mRNA level (antagonist, real-time PCR; 1 µM, with: 1 nM estradiol): inhibited
COc1ccc(NC(=O)CCc2nc3cc(Cl)ccc3[nH]c2=O)cc1 — total apoptotic cells (annexin V-FITC flow cytometry; concentration not given; baseline: untreated control): 10.2 fold
CCC(=C(c1ccc(Cl)cc1)c1ccc(OCCN2CCOCC2)cc1)c1ccc(OC)cc1 — inhibition (cell growth or viability; 10 µM): 2.3%
COc1cc([C@@H]2c3cc4c(cc3[C@@H](OCc3cc(-c5ccc(C#N)cc5)no3)[C@H]3COC(=O)C23)OCO4)cc(OC)c1OC (some centres unmarked) — caspase-3/7 activation (Caspase-Glo 3/7; 20 µg/mL, 24 h): 89.3%
NS(=O)(=O)c1ccc(/N=N/c2ccc(O)c(/C=N/c3cc([N+](=O)[O-])ccc3O)c2)cc1 — selectivity index (MTT; 72 h; baseline: MCF10A IC50 over MCF7 IC50): 0.53
CC(Cc1ccc(Cl)cc1)=C(c1ccc(Cl)cc1)c1ccc(OCCN2CCOCC2)cc1 — inhibition (cell growth or viability; 10 µM): 0.5%
Cc1ccc2oc(=O)c(-c3nc4cnccc4[nH]3)cc2c1 — EC50 (cell growth or viability; 72 h): 9.53 µM
CCS(=O)(=O)Oc1cc(/C=N/NC(=O)c2nc3ccccc3s2)ccc1OC — cell death (cell growth or viability, MTT; 100 µM, 48 h): 53.4%
OC(c1cccc(Cl)c1)c1c[nH]c2ncc(C(F)(F)F)cc12 (centres unmarked) — inhibition (cell growth or viability; 10 µM, 72 h): 14%
COc1ccc(-c2nnc(-c3cc(-c4ccccc4)n(-c4ccc(S(N)(=O)=O)cc4)n3)o2)cc1 — mRNA level (real-time PCR, measured: p53; concentration not given; baseline: untreated cells): 5.57 fold
CN1CCN(c2ccc(C(=O)/C=C/Nc3ccc(S(N)(=O)=O)cc3)cc2)CC1 — cells in %G0–G1 phase (PI flow cytometry; IC50 concentration, 24 h): 51.4%
CN(C)c1ccc(/C=C/c2cc(/C=C3\Sc4ccccc4N3CCCN3CCCC3)c3ccccc3[n+]2C)cc1 — γ-H2AX and 53BP1 levels (Western blot; concentration not given, 36 h): increased
N=C(N)NCCC[C@H](NC(=O)[C@H](Cc1c[nH]c2ccccc12)NC(=O)[C@H](CCC(N)=O)NC(=O)[C@H](Cc1c[nH]c2ccccc12)NC(=O)[C@H](CCCNC(=N)N)NC(=O)[C@H](Cc1c[nH]c2ccccc12)NC(=O)[C@H](CCC(N)=O)NC(=O)[C@@H](N)Cc1c[nH]c2ccccc12)C(N)=O — selectivity ratio (baseline: erythrocyte IC50 over MCF7 IC50): > 1.1
O=C1c2c(O)cc(O)cc2-c2c(-c3ccc(O)cc3)oc3cc(O)cc1c23 — unique upregulated proteins (label-free MS proteomics; baseline: tanespimycin): ~51%
FC(F)(F)c1cnc2[nH]cc(Cc3ccc(OCc4ccccc4)cc3)c2c1 — inhibition (cell growth or viability; 10 µM, 72 h): 32%
FC(F)(F)C1(c2ccc(CN3CCN(C(c4ccccc4)c4ccc(Cl)cc4)CC3)cc2)CC1 (centres unmarked) — activity (concentration not given, 72 h): inactive
CC(=NNC(=S)NN=C(C(=NO)c1ccccc1)c1ccccc1)c1ccccc1 — relative protein level (Western blot, measured: HO-1; IC50 concentration, 24 h; baseline: untreated): 1.45 ± 0.06
CC(=C(c1ccc(Cl)cc1)c1ccc(OCCN2CCCCC2)cc1)c1ccc(Cl)cc1 — inhibition (cell growth or viability; 10 µM): 19.5%
CC(C)c1cnn2c(NCc3ccccc3)cc(N[C@@H](CO)[C@H](O)CO)nc12 — RNA polymerase II Ser5 phosphorylation (immunofluorescence, measured: phospho-Ser5 RNA polymerase II; 1 µM, 24 h): inhibited
C[C@]12CC[C@@H]3c4ccc(OCC(=O)N[C@@H](CCCCNC(=O)CN5CCN(CC(=O)[O-])CCN(CC(=O)[O-])CCN(CC(=O)[O-])CC5)C(=O)O)cc4CC[C@H]3[C@@H]1CCC2=O.[Ga+3] [gallium-68 labelled] — Kd (saturation binding; 60 min, room temperature): 0.0177 ± 0.00374 µM

A few entries again:
CCC(=C(c1ccc(Cl)cc1)c1ccc(OCCN2CCOCC2)cc1)c1ccc(OC)cc1 — inhibition (cell growth or viability; 10 µM): 2.3%
CN1CCN(c2ccc(C(=O)/C=C/Nc3ccc(S(N)(=O)=O)cc3)cc2)CC1 — cells in %G0–G1 phase (PI flow cytometry; IC50 concentration, 24 h): 51.4%
O=C(O)C=Cc1ccc(C(=C2C3CCCC2CCC3)c2ccc(O)cc2)cc1 — pS2 mRNA level (antagonist, real-time PCR; 1 µM, with: 1 nM estradiol): inhibited
N=C(N)NCCC[C@H](NC(=O)[C@H](Cc1c[nH]c2ccccc12)NC(=O)[C@H](CCC(N)=O)NC(=O)[C@H](Cc1c[nH]c2ccccc12)NC(=O)[C@H](CCCNC(=N)N)NC(=O)[C@H](Cc1c[nH]c2ccccc12)NC(=O)[C@H](CCC(N)=O)NC(=O)[C@H](Cc1c[nH]c2ccccc12)NC(=O)[C@@H](N)CCCNC(=N)N)C(N)=O — selectivity ratio (baseline: MCF-12 IC50 over MCF7 IC50): > 1.7
